# Assay results gathered from unrelated publications.
# Lines come from different studies, so protocols differ.
Compound,test,test system,conditions,scale,endpoint,value
CC(C)n1c(Nc2cccnc2)nc2cnc(Nc3ccc(N4CCN(C)CC4)cc3)nc21,,healthy male humans,"oral, dose not given, drug interaction study, all arms",,incidence of ALT increased TEAE,11.9%
C[C@@H](Oc1ccc(S(C)(=O)=O)cc1C(=O)N1C[C@@H]2C[C@]2(c2cc(C(F)(F)F)on2)C1)C(F)(F)F,,human,"oral, 25 mg",,incidence of Pollakiuria,16.7%
CO[C@H]1/C=C/O[C@@]2(C)Oc3c(C)c(O)c4c(O)c(c(/C=N/N5CCN(C)CC5)c(O)c4c3C2=O)NC(=O)/C(C)=C\C=C\[C@H](C)[C@H](O)[C@@H](C)[C@@H](O)[C@@H](C)[C@H](OC(C)=O)[C@@H]1C,,healthy human volunteers,"oral, 600 mg, itraconazole cohort, with: gepotidacin 1500 mg",,incidence of cardiac disorders,0%
Cn1cnc2ccc(Nc3c(F)ccc(NS(=O)(=O)N4CC(F)C4)c3Cl)c(Cl)c2c1=O,,human,"dose not given, combination therapy, first-in-human",baseline: participants,incidence of blurred vision,4%
CC[C@H](C)[C@H](NC(=O)[C@H](Cc1ccccc1)NC(=O)[C@H](CCC(=O)O)NC(=O)[C@H](CCCCNC(=O)COCCOCCNC(=O)COCCOCCNC(=O)CC[C@H](NC(=O)CCCCCCCCCCCCCCCCC(=O)O)C(=O)O)NC(=O)[C@H](C)NC(=O)[C@H](C)NC(=O)[C@H](CCC(N)=O)NC(=O)CNC(=O)[C@H](CCC(=O)O)NC(=O)[C@H](CC(C)C)NC(=O)[C@H](Cc1ccc(O)cc1)NC(=O)[C@H](CO)NC(=O)[C@H](CO)NC(=O)[C@@H](NC(=O)[C@H](CC(=O)O)NC(=O)[C@H](CO)NC(=O)[C@@H](NC(=O)[C@H](Cc1ccccc1)NC(=O)[C@@H](NC(=O)CNC(=O)[C@H](CCC(=O)O)NC(=O)C(C)(C)NC(=O)[C@@H](N)Cc1cnc[nH]1)[C@@H](C)O)[C@@H](C)O)C(C)C)C(=O)N[C@@H](C)C(=O)N[C@@H](Cc1c[nH]c2ccccc12)C(=O)N[C@@H](CC(C)C)C(=O)N[C@H](C(=O)N[C@@H](CCCNC(=N)N)C(=O)NCC(=O)N[C@@H](CCCNC(=N)N)C(=O)NCC(=O)O)C(C)C,,"human, type 2 diabetes","dose not given, decreased appetite, during treatment",baseline: subjects,incidence of adverse events,26.7%
CC1(C)CC[C@]2(NC(=O)C(C)(F)F)CC[C@]3(C)[C@H](C(=O)C=C4[C@@]5(C)C=C(C#N)C(=O)C(C)(C)[C@@H]5CC[C@]43C)[C@@H]2C1,,human,"oral, 150 mg once daily",,incidence of generalized pruritus,0%
CN1CCc2nc(C(=O)N[C@@H]3C[C@@H](C(=O)N(C)C)CC[C@@H]3NC(=O)C(=O)Nc3ccc(Cl)cn3)sc2C1,"item: headache, nausea, faecal occult blood",humans,ketoconazole interaction study,,incidence of each common adverse event,10%
CCC(C)n1ncn(-c2ccc(N3CCN(c4ccc(OCC5COC(Cn6cncn6)(c6ccc(Cl)cc6Cl)O5)cc4)CC3)cc2)c1=O (centres unmarked),,healthy human volunteers,"oral, 200 mg, compound alone cohort",,incidence of any adverse event,47%

# Some of these lines once more:
Compound,test,test system,conditions,scale,endpoint,value
CC1(C)CC[C@]2(NC(=O)C(C)(F)F)CC[C@]3(C)[C@H](C(=O)C=C4[C@@]5(C)C=C(C#N)C(=O)C(C)(C)[C@@H]5CC[C@]43C)[C@@H]2C1,,human,"oral, 150 mg once daily",,incidence of generalized pruritus,0%
